{"data": "Results from different studies", "note": "Protocols differ between the studies behind these lines."}
{"Compound": "C[C@@H](c1ncncc1F)[C@](O)(Cn1cncn1)c1ccc(F)cc1F", "tested on": "Blastomyces dermatitidis", "test system": "BD-1", "measurement": "MIC", "result": "0.06 µg/mL"}
{"Compound": "Cc1c[nH]c(=O)[nH]c1=O", "test": "binding, MIDAS equilibrium dialysis LC-MS", "test system": "A2AR-BRIL thermostabilized", "conditions": "concentration not given", "scale": "reference: no-protein control", "measurement": "log2 fold change", "result": 0.327}
{"Compound": "CNC(C)C1CCC(N)C(OC2C(N)CC(N)C(OC3OCC(C)(O)C(NC)C3O)C2O)O1 (centres unmarked)", "tested on": "Pseudomonas aeruginosa", "test system": "clinical isolate RKI-No_254/15", "measurement": "MIC", "result": "4 µg/mL"}
{"Compound": "CC1(C)SC2C(NC(=O)C(NC(=O)C3=C(O)C(Cc4ccco4)NC3=O)c3ccccc3)C(=O)N2C1C(=O)O (centres unmarked)", "tested on": "Escherichia coli", "test": "broth microdilution", "test system": "ATCC 25922 wild type", "conditions": "with: clavulanic acid 6 µg/mL", "measurement": "MIC", "result": "6.25 µg/mL"}
{"Compound": "CC(=O)ON=C1C=CC(=C(C#N)c2ccccc2)C=C1", "tested on": "Clavispora lusitaniae", "test": "broth dilution", "test system": "ATCC 34449", "conditions": "48 h, 37 °C", "measurement": "MIC", "result": "64 µg/mL"}
{"Compound": "CN[C@H](CC(C)C)C(=O)N[C@H]1C(=O)N[C@@H](CC(N)=O)C(=O)N[C@H]2C(=O)N[C@H]3C(=O)N[C@H](C(=O)N[C@H](C(=O)O)c4cc(O)cc(O)c4-c4cc3ccc4O)[C@H](O)c3ccc(c(Cl)c3)Oc3cc2cc(c3O[C@@H]2O[C@H](CO)[C@@H](O)[C@H](O)[C@H]2O[C@H]2C[C@](C)(N)[C@H](O)[C@H](C)O2)Oc2ccc(cc2Cl)[C@H]1O", "tested on": "Streptococcus pyogenes", "test system": "ATCC 13813", "conditions": "1 strain", "measurement": "MIC", "result": "0.5 µg/mL"}
{"Compound": "CC1(C)SC2C(NC(=O)C(NC(=O)C3=C(O)C(Cc4ccc(O)cc4)NC3=O)c3ccccc3)C(=O)N2C1C(=O)O (centres unmarked)", "tested on": "Escherichia coli", "test": "broth microdilution", "test system": "ATCC 25922 wild type", "conditions": "no clavulanic acid", "measurement": "MIC", "result": "12.5 µg/mL"}
{"Compound": "Cc1c(CN(C)C(=O)/C=C/c2cnc3c(c2)CCC(=O)N3)oc2ccccc12", "tested on": "Escherichia coli", "test": "broth microdilution", "test system": "AR-0541", "measurement": "MIC", "result": "> 32 µg/mL"}
{"Compound": "CC(C)C[C@@H]1NC(=O)[C@@H](Cc2ccccc2)NC(=O)[C@H](CCN)NC(=O)[C@@H](NC(=O)[C@H](CCN)NC(=O)[C@@H](N)[C@@H](C)O)CCNC(=O)[C@H]([C@@H](C)O)NC(=O)[C@H](CCN)NC(=O)[C@H](CCN)NC1=O", "tested on": "Escherichia coli", "test": "MIC of compound in combination, checkerboard", "test system": "W3110", "conditions": "concentration not given, with: rifampicin", "measurement": "MIC", "result": "6.25 µg/mL"}
{"Compound": "CCCCCCCCCC(=O)N[C@@H](Cc1c[nH]c2ccccc12)C(=O)N[C@H](CC(N)=O)C(=O)N[C@@H](CC(=O)O)C(=O)N[C@@H]1C(=O)NCC(=O)N[C@@H](CCCN)C(=O)N[C@@H](CC(=O)O)C(=O)N[C@H](C)C(=O)N[C@@H](CC(=O)O)C(=O)NCC(=O)N[C@H](CO)C(=O)N[C@@H]([C@H](C)CC(=O)O)C(=O)N[C@@H](CC(=O)c2ccccc2N)C(=O)O[C@@H]1C", "tested on": "Staphylococcus aureus", "test system": "SH1000", "conditions": "with: menaquinone-4, molar ratio 0.5", "measurement": "MIC", "result": "1 µg/mL"}
{"Compound": "C[C@H]1COc2c(N3CCN(C)CC3)c(F)cc3c(=O)c(C(=O)O)cn1c23", "tested on": "Serratia marcescens", "test": "agar dilution", "test system": "ATCC 21074 susceptible", "measurement": "MIC", "result": "0.12 µg/mL"}
{"Compound": "Cc1ccc(CCC(=O)Nc2nnc(S(N)(=O)=O)s2)cc1", "tested on": "Lactobacillus gasseri", "test system": "ATCC 19992", "measurement": "MIC", "result": "> 784 µM"}
{"Compound": "Nc1nc2c(ncn2[C@@H]2O[C@H](CO)[C@@H](O)[C@H]2O)c(=O)[nH]1", "test": "binding, MIDAS equilibrium dialysis LC-MS", "test system": "A2AR-BRIL thermostabilized", "conditions": "concentration not given", "scale": "reference: no-protein control", "measurement": "log2 fold change", "result": -0.0517}
{"Compound": "N=C(N)c1cccc(OCc2ccc(COc3cccc(C(=N)N)c3)cc2)c1", "tested on": "Escherichia coli", "test system": "552100", "conditions": "compound alone", "measurement": "MIC", "result": "> 200 µg/mL"}
{"Compound": "Cc1ccc(C(C)C)c(OC2=C(Cl)C(=O)c3ccccc3C2=O)c1", "tested on": "Serratia marcescens", "test": "broth microdilution", "test system": "MTCC 4301", "measurement": "MIC", "result": "10 µg/mL"}
{"Compound": "CCCCCCC#Cc1cncc(-c2nnc(SCc3ccc([N+](=O)[O-])cc3)n2C)c1", "tested on": "Mycolicibacterium smegmatis", "scale": "no activity below value", "measurement": "MIC", "result": "≥ 100 µM"}
{"Compound": "Cn1cc(-c2ccc(-c3cncc(Cl)c3N3CCC4(CCNC4=O)CC3)cc2)cn1", "tested on": "COLO 205", "test": "gene expression, microarray, refers to: MDM2 mRNA", "conditions": "concentration not given, 6 h", "scale": "reference: untreated cells", "measurement": "log2 fold change", "result": 2.54}
{"Compound": "CCCCCCC#Cc1cncc(-c2nnc(SCc3ccc(C#N)cc3)n2C)c1", "tested on": "Mycolicibacterium smegmatis", "scale": "no activity below value", "measurement": "MIC", "result": "≥ 100 µM"}
{"Compound": "C=CC(=O)ON=C1C=CC(=C(C#N)c2ccccc2)C=C1", "tested on": "Clavispora lusitaniae", "test": "broth dilution", "test system": "ATCC 34449", "conditions": "48 h, 37 °C", "measurement": "MIC", "result": "64 µg/mL"}
{"Compound": "CC1(C)S[C@@H]2[C@H](NC(=O)[C@H](N)c3ccccc3)C(=O)N2[C@H]1C(=O)O", "tested on": "Pseudomonas aeruginosa", "test system": "clinical isolate RKI-No_493/15", "measurement": "MIC", "result": "> 16 µg/mL"}
{"Compound": "N=C(N)c1ccc(OCc2cc(COc3ccc(C(=N)N)cc3)cc(-c3ccccc3)c2)cc1", "tested on": "Escherichia coli", "test system": "mcr-3 polymyxin-resistant", "conditions": "compound alone", "measurement": "MIC", "result": "200 µg/mL"}
{"Compound": "NC[C@H]1O[C@H](O[C@H]2[C@H](O)[C@@H](O[C@H]3O[C@H](CO)[C@@H](O)[C@H](N)[C@H]3O)[C@H](N)C[C@@H]2N)[C@H](O)[C@@H](O)[C@@H]1O", "tested on": "Vibrio alginolyticus", "test": "broth dilution", "conditions": "24 h", "measurement": "MIC", "result": "20 to 40 µM"}
{"Compound": "N=C(N)c1ccc(OCc2ccc(Br)cc2COc2ccc(C(=N)N)cc2)cc1", "tested on": "Escherichia coli", "test system": "BW25113", "conditions": "compound alone, with: erythromycin checkerboard", "measurement": "MIC", "result": "200 µg/mL"}
{"Compound": "CC1CCC(C(C)C)C(OC2=C(Cl)C(=O)c3ccccc3C2=O)C1 (centres unmarked)", "tested on": "Serratia marcescens", "test": "broth microdilution", "test system": "MTCC 4301", "measurement": "MIC", "result": "10 µg/mL"}
{"Compound": "N=C(N)c1ccc(OCc2ccc(-c3ccccc3)cc2COc2ccc(C(=N)N)cc2)cc1", "tested on": "Escherichia coli", "test system": "552100", "conditions": "in combination, checkerboard, with: rifampicin", "measurement": "MIC", "result": "6.25 µg/mL"}
{"Compound": "N#CC(=C1C=CC(=NOC(=O)OCc2ccccc2)C=C1)c1ccccc1", "tested on": "Clavispora lusitaniae", "test": "broth dilution", "test system": "ATCC 34449", "conditions": "48 h, 37 °C", "measurement": "MIC", "result": "128 µg/mL"}
{"note": "Excerpt of the above:"}
{"Compound": "CC1(C)SC2C(NC(=O)C(NC(=O)C3=C(O)C(Cc4ccc(O)cc4)NC3=O)c3ccccc3)C(=O)N2C1C(=O)O (centres unmarked)", "tested on": "Escherichia coli", "test": "broth microdilution", "test system": "ATCC 25922 wild type", "conditions": "no clavulanic acid", "measurement": "MIC", "result": "12.5 µg/mL"}
{"Compound": "N=C(N)c1cccc(OCc2ccc(COc3cccc(C(=N)N)c3)cc2)c1", "tested on": "Escherichia coli", "test system": "552100", "conditions": "compound alone", "measurement": "MIC", "result": "> 200 µg/mL"}
